Published values of several laboratories.
A part holds a random share of what one study measured. ± marks the error that the study gave. Converted amounts (≈) assume the structure as drawn.

Sample 1 — observed: enzyme activity; action: inhibitor; tested at: 20 µM; endpoint: inhibition
Target: Replicase polyprotein 1ab, polymerase (rep, Severe acute respiratory syndrome coronavirus 2, UniProt P0DTD1)
Compound = COc1cc(NS(=O)(=O)c2ccc(N)cc2)nc(OC)n1; value = 21.6%
Compound = Cc1cc(C(=O)Nc2nc3cccc(Cl)c3n2[C@@H]2CCCCN(C(=O)/C=C/CN(C)C)C2)ccn1; value = 8.92%
Compound = CC1(C)[C@@H](OC(=O)CCC(=O)O)CC[C@]2(C)[C@H]3C(=O)C=C4[C@@H]5C[C@@](C)(C(=O)O)CC[C@]5(C)CC[C@@]4(C)[C@]3(C)CC[C@@H]12; value = 15.8%
Compound = C[C@@H](O)[C@@H]1NC(=O)[C@H](CCCCN)NC(=O)[C@@H](Cc2c[nH]c3ccccc23)NC(=O)[C@H](Cc2ccccc2)NC(=O)[C@@H](NC(=O)[C@H](N)Cc2ccccc2)CSSC[C@@H](C(=O)N[C@H](CO)[C@@H](C)O)NC1=O; value = -8.3%
Compound = CO[C@]12C[C@@H](COC(=O)c3cncc(Br)c3)CN(C)[C@@H]1Cc1cn(C)c3cccc2c13; value = 29.4%
Compound = CCCN[C@@H]1CCc2c(OC)cccc2[C@@H]1C; value = 1%
Compound = N#Cc1cc(NC(=O)C(=O)O)c(Cl)c(NC(=O)C(=O)O)c1; value = 3.98%
Compound = CCCN[C@H]1CCc2nc(N)sc2C1; value = -1.26%
Compound = CCCC[C@@H](NC(=O)[C@@H](Cc1cn(C(=O)OC)c2ccccc12)NC(=O)[C@H](CC(C)(C)C)NC(=O)N1[C@H](C)CCC[C@@H]1C)C(=O)O; value = 1.47%
Compound = COc1cc([C@@H]2c3cc4c(cc3[C@@H](O[C@@H]3O[C@@H]5CO[C@@H](c6cccs6)O[C@H]5[C@H](O)[C@H]3O)[C@H]3COC(=O)[C@H]23)OCO4)cc(OC)c1O; value = 4.77%
Compound = CCC[C@H](NC(=O)/C(C#N)=C/c1cccc(Br)n1)c1ccccc1; value = -2.23%
Compound = COc1cc(C(=O)N(CCC2CCCN2C)C/C(C)=C/c2ccccc2F)cc(OC)c1OC (stereo not drawn); value = 23.9%
Compound = C(#Cc1nc2ncccc2nc1OCCN1CCCC1)c1ccccc1; value = 0.56%
Compound = O=C1c2c(O)cccc2Cc2cccc(O)c21; value = 69.6%
Compound = Cc1sc(C)c2c1CCC=C2c1cnc[nH]1; value = -1.85%
Compound = CC(C)[C@H](CO)Nc1nc(Nc2cc(N)cc(Cl)c2)c2ncn(C(C)C)c2n1; value = 5.56%
Compound = C=C1CC/C=C(/C)CC[C@@H]2[C@@H]1CC2(C)C; value = -5.95%
Compound = Nc1ccc(S(=O)(=O)Nc2ncccn2)cc1; value = 5.7%
Compound = O=C(Oc1ccccc1C(=O)O)c1ccccc1O; value = 5.42%
Compound = OCc1ccc(-c2ccc(-c3ccc(CO)s3)o2)s1; value = -1.1%
Compound = O=S(=O)(O)c1cc(O)ccc1O; value = 1.4%
Compound = C/C(=C\C(=O)OCCCCCCCCC(=O)O)C[C@@H]1OC[C@H](C[C@@H]2O[C@H]2[C@@H](C)[C@H](C)O)[C@@H](O)[C@H]1O; value = 4.14%
Compound = N[C@@H](Cn1ccc(=O)c(O)c1)C(=O)O; value = -1.27%
Compound = CC1=C(C(=O)OC2CCCCC2)C(c2ccc([N+](=O)[O-])cc2)C2=C(CC(C)(C)CC2=O)N1 (stereo not drawn); value = 4.1%
Compound = CN(C)CCN1C(=O)c2cccc3cc(NC(N)=O)cc(c23)C1=O; value = -2.39%

Other studies, line by line
rep main protease: Replicase polyprotein 1ab, main protease (rep, Severe acute respiratory syndrome coronavirus 2, UniProt P0DTD1)
SMILES = CC[C@H](NC(C)=O)C(=O)N[C@@H](CCCN)C(=O)N[C@@H](CC(C)C)C(=O)N[C@@H](CCC(N)=O)C(=O)Nc1ccc2c(C)cc(=O)oc2c1; tested on = rep main protease; test = substrate; endpoint = peak substrate concentration; value = 3.48 mmol/L
SMILES = OC1CCCCC1N1CCC(c2ccccc2)CC1 (stereo not drawn); tested on = mouse MPNST tumor cells; test = high-content nuclear imaging, measured: cell number; conditions = 10 µM, 12 h, mean of 2 replicates; how to read = baseline: plate mean, higher = more cells; endpoint = nuclei count; value = 0.652 z-score
SMILES = COC(=O)[C@H](CCSC)NC(=O)c1ccc(NC[C@@H](N)CS)cc1-c1ccccc1; tested on = rep main protease; test = enzyme activity, inhibitor; conditions = 20 µM, hit confirmation; endpoint = inhibition; value = 73.3%
SMILES = CCOC(=O)CN1CCN(CCCOc2c3c(c(-c4ccc5c(c4)OCO5)c4cc(OC)c(OC)cc24)C(=O)OC3)CC1; tested on = VSV pseudotyped with Marburg virus GP; test = viral entry, measured: GFP; endpoint = IC50; value = 0.0816 ± 0.0287 µM
SMILES = CN1CCN(C2=Nc3ccccc3Oc3ccc(Cl)cc32)CC1.O=C(O)CCC(=O)O; tested on = Vesicular stomatitis virus; test = pseudovirus infection, FDA-approved drug library screen; conditions = concentration not given, SARS-CoV-2 spike pseudotype; how to read = baseline: vehicle; endpoint = GFP-positive cells; value = 59.2%
SMILES = COc1cc(C2C(C#N)=C(N)Oc3c2c(C)nn3-c2ccc(Cl)cc2)cc(OC)c1OC (stereo not drawn); tested on = SARS-CoV-2; system = Vero C1008; conditions = 1 µM; how to read = baseline: positive control; endpoint = viral titre log reduction; value = 0.145 log10
SMILES = CC(C)=CCc1c(O)ccc(C(=O)/C=C/c2ccc(O)cc2)c1O; tested on = SARS-CoV-2; test = cytopathic effect; system = Vero E6; conditions = 50 µM, replicate run; endpoint = inhibition; value = 50%
SMILES = Cc1nn(-c2ccc(Cl)cc2)c2c1C(c1c(Cl)cccc1Cl)C(C#N)=C(N)O2 (stereo not drawn); tested on = SARS-CoV-2; system = Vero C1008; conditions = 1 µM; how to read = baseline: positive control; endpoint = viral titre log reduction; value = 0.0237 log10
SMILES = CCC(CC)COC(=O)[C@H](C)N[P@](=O)(OC[C@H]1O[C@@](C#N)(c2ccc3c(N)ncnn23)[C@H](O)[C@@H]1O)Oc1ccccc1; tested on = SARS-CoV-2 USA-WA1/2020; test = time-of-addition; system = A549-ACE2; conditions = 10 µM; endpoint = time of addition when activity is lost; value = 2 h post-infection
SMILES = O=C(O)[C@H]1O[C@@H](Oc2cc(O)c3c(=O)cc(-c4ccc(O)c(O)c4)oc3c2)[C@H](O)[C@@H](O)[C@@H]1O; tested on = Spike glycoprotein (Severe acute respiratory syndrome coronavirus 2, UniProt P0DTC2); test = binding, biolayer interferometry; endpoint = kon; value = 216 M⁻¹ s⁻¹
SMILES = CC(Cc1cccnc1)Nc1nccc(-c2cnn(-c3ccccc3F)c2)n1 (stereo not drawn); tested on = Lassa mammarenavirus; test = viral replication; system = Huh-7; conditions = 10 µM, 72 h; endpoint = remaining activity; value = 40%
SMILES = Cn1c(=O)ccc2ccc(F)c(CCNC[C@H]3CN(c4cnc5c(n4)NC(=O)CO5)C(=O)O3)c21; tested on = Burkholderia pseudomallei; endpoint = MIC90; value = 0.5 µg/mL (≈ 1.07 µM)
SMILES = O=C(CCc1cncc2ccccc12)N1CCc2cccc(-c3cn(CCO)nn3)c21; tested on = rep main protease; test = enzyme activity, inhibitor; conditions = 5 µM, run 1; endpoint = inhibition; value = 18.9%
SMILES = Nc1ncnc2c1ncn2[C@@H]1O[C@H](CSCC[C@H](N)C(=O)O)[C@@H](O)[C@H]1O; tested on = SARS-CoV-2; test = plaque formation, plaque reduction; system = Vero E6; conditions = 72 h; endpoint = EC50; value = > 50 µM
SMILES = CCOC(=O)CC(SP(=S)(OC)OC)C(=O)OCC (stereo not drawn); tested on = mouse MPNST tumor cells; test = high-content nuclear imaging, measured: cell number; conditions = 10 µM, 12 h, mean of 2 replicates; how to read = baseline: plate mean, higher = more cells; endpoint = nuclei count; value = -0.36 z-score
SMILES = Cc1cn([C@H]2C=C[C@@H](COP(=O)(O)OP(=O)(O)OP(=O)(O)O)O2)c(=O)[nH]c1=O; tested on = Gag-Pol polyprotein, reverse transcriptase (gag-pol, Human immunodeficiency virus type 1 group M subtype B, UniProt P04585, K652R); test = inhibitor; system = HIV-1; endpoint = IC50; value = 16.7 ± 1.34 µM
SMILES = CC(=O)COC(=O)/C=C(C)/C=C/C=C(C)/C=C/C1=C(C)CCCC1(C)C; tested on = SARS-CoV-2; test = viral replication; system = Vero E6, USA-WA1/2020; conditions = 2.5 µM; endpoint = inhibition; value = 55.8%
SMILES = O=C(O)c1cc(=O)cc(C(=O)O)o1; tested on = rep main protease; test = reporter gene (Gaussia luciferase), inhibitor; conditions = 20 µM; endpoint = inhibition; value = 2.07%
SMILES = Nc1ncnc2c([C@@H]3N[C@H](CO)[C@@H](O)[C@H]3O)c[nH]c12; tested on = Yellow fever virus; test = viral replication; system = Vero 76, 17D; conditions = 29.6 µM; endpoint = inhibition; value = 67%
SMILES = O=C(N1CCC2(CC1)CC(CNS(=O)(=O)C1CC1)CCO2)C1(c2ccccc2)CCCC1 (stereo not drawn); tested on = Venezuelan equine encephalitis virus; test = viral replication; endpoint = EC50; value = > 39.8 µM
SMILES = COc1ccc2c(c1)[C@@H]1C[C@]1(C(=O)N1[C@@H]3CC[C@H]1CN(C)C3)Cn1c-2c(C2CCCCC2)c2ccc(C(=O)NS(=O)(=O)N(C)C)cc21; tested on = SARS-CoV-2; test = viral replication; system = Vero E6, USA-WA1/2020; conditions = 2.5 µM; endpoint = inhibition; value = 54.6%
SMILES = CNCC1CCOC2(CCN(C(=O)C3(c4ccccc4)CCCC3)CC2)C1 (stereo not drawn); tested on = Venezuelan equine encephalitis virus; test = viral replication; endpoint = EC50; value = 20 µM
SMILES = CCC(C)NC(=O)c1ccccc1NC(=O)c1ccc(C)c(S(=O)(=O)Nc2cccc(NC(=O)c3ccccc3)c2)c1 (stereo not drawn); tested on = SARS-CoV-2; test = plaque formation, plaque reduction; system = Vero E6; conditions = 72 h; endpoint = EC50; value = > 50 µM
SMILES = CCN(Cc1cn(C[C@H]2O[C@@H](n3cnc4c(N)ncnc43)[C@H](O)[C@@H]2O)nn1)S(=O)(=O)c1ccc(Cl)cc1; tested on = Replicase polyprotein 1ab, nsp14 N7-methyltransferase (rep, Severe acute respiratory syndrome coronavirus 2, UniProt P0DTD1); test = N7-methyltransferase activity, inhibitor, radioactive filter binding; conditions = 50 µM, 0.5 h, 30 °C, added: GpppAC4 RNA, SAM; endpoint = remaining binding; value = > 50%
SMILES = COC(=O)N[C@H](C(=O)N[C@@H](Cc1ccccc1)[C@@H](O)CN(Cc1ccc(-c2ccccn2)cc1)NC(=O)[C@@H](NC(=O)OC)C(C)(C)C)C(C)(C)C; tested on = rep main protease; test = reporter gene (Gaussia luciferase), inhibitor; conditions = 20 µM; endpoint = inhibition; value = 3.56%
SMILES = Cc1nc(C(=O)N2CC[C@@H]([C@@H]3CCCN3C(=O)c3cc(O)ccc3Cl)C2)cc(=O)[nH]1; tested on = rep main protease; test = enzyme activity, inhibitor; conditions = 5 µM, mean of runs; endpoint = inhibition; value = 10.9%

For quick reference, copied from above (other studies, line by line):
SMILES = CC(=O)COC(=O)/C=C(C)/C=C/C=C(C)/C=C/C1=C(C)CCCC1(C)C; tested on = SARS-CoV-2; test = viral replication; system = Vero E6, USA-WA1/2020; conditions = 2.5 µM; endpoint = inhibition; value = 55.8%
SMILES = O=C(O)c1cc(=O)cc(C(=O)O)o1; tested on = rep main protease; test = reporter gene (Gaussia luciferase), inhibitor; conditions = 20 µM; endpoint = inhibition; value = 2.07%
SMILES = Nc1ncnc2c([C@@H]3N[C@H](CO)[C@@H](O)[C@H]3O)c[nH]c12; tested on = Yellow fever virus; test = viral replication; system = Vero 76, 17D; conditions = 29.6 µM; endpoint = inhibition; value = 67%
SMILES = O=C(N1CCC2(CC1)CC(CNS(=O)(=O)C1CC1)CCO2)C1(c2ccccc2)CCCC1 (stereo not drawn); tested on = Venezuelan equine encephalitis virus; test = viral replication; endpoint = EC50; value = > 39.8 µM
SMILES = COc1ccc2c(c1)[C@@H]1C[C@]1(C(=O)N1[C@@H]3CC[C@H]1CN(C)C3)Cn1c-2c(C2CCCCC2)c2ccc(C(=O)NS(=O)(=O)N(C)C)cc21; tested on = SARS-CoV-2; test = viral replication; system = Vero E6, USA-WA1/2020; conditions = 2.5 µM; endpoint = inhibition; value = 54.6%
SMILES = CNCC1CCOC2(CCN(C(=O)C3(c4ccccc4)CCCC3)CC2)C1 (stereo not drawn); tested on = Venezuelan equine encephalitis virus; test = viral replication; endpoint = EC50; value = 20 µM
